Assay results from different studies.
Compare with care: the assays were run in different laboratories.
Organism: Escherichia coli

`CC[C@H](C)[C@H](NC(=O)[C@@H](CCCNC(=N)N)NC(=O)[C@H](CCCNC(=N)N)NC(=O)[C@@H]1CCCN1C(=O)[C@@H]1CCCN1C(=O)[C@H](CCCNC(=N)N)NC(=O)[C@@H]1CCCN1C(=O)[C@H](CCCNC(=N)N)NC(=O)[C@@H]1CCCN1C(=O)[C@H](CC(C)C)NC(=O)[C@H](Cc1ccc(O)c([N+](=O)[O-])c1)NC(=O)[C@@H]1CCCN1C(=O)[C@@H]1CCCN1C(=O)[C@H](CCCCN)NC(=O)[C@H](CC(=O)O)NC(=O)[C@@H](N)C(C)C)C(=O)N[C@@H](Cc1ccc(O)cc1)C(=O)N[C@@H](CC(N)=O)C(=O)N[C@H](CCCNC(=N)N)C(N)=O` has an MIC of 8 µg/mL (broth microdilution; BW25113; 18 h, 37 °C, 25% MHB2).
`CC[C@H](C)[C@H](NC(=O)[C@H](CCCNC(=N)N)NC(=O)[C@@H](NC(=O)[C@@H]1CCCN1C(=O)[C@H](CCCNC(=N)N)NC(=O)[C@@H](NC(=O)[C@@H]1CCCN1C(=O)[C@H](CC(C)C)NC(=O)[C@H](CC(C)C)NC(=O)CNC(=O)[C@H](Cc1c[nH]cn1)NC(=O)[C@@H]1CCCN1C(=O)CNC(=O)[C@H](Cc1ccccc1)NC(=O)[C@H](CC(=O)O)NC(=O)[C@H](Cc1c[nH]c2ccccc12)NC(=O)[C@H](C)NC(=O)[C@@H](NC(=O)[C@H](C)N)[C@@H](C)O)[C@@H](C)CC)[C@@H](C)CC)C(=O)N[C@@H](CCCNC(=N)N)C(=O)N1CCC[C@H]1C(=O)N[C@@H](CC(C)C)C(=O)N[C@@H](CS)C(=O)NCC(=O)N[C@@H](CCCCN)C(=O)N[C@@H](CC(=O)O)C(=O)O` has an MIC of 141 µg/mL (broth microdilution; K88, Mueller-Hinton broth; 37 °C).
For `C=C1NC(=O)C2C[S+]([O-])CC3NC(=O)C(CSC(C)C(NC(=S)C(Cc4cnc[nH]4)NC(=O)c4csc(C(C)NC(C)=O)n4)C(=O)N[C@H](CC(C)C(=O)NC(=O)CC(C(=O)O)NC(=O)C(C)NC3=O)C(=O)N2)NC(=O)[C@@H]2CCCN2C(=O)[C@@H](CC(C)C)NC1=O` (some centres unmarked), the MIC was greater than 32 µg/mL (bacterial growth; ATCC 25922).
`CC[C@H](C)[C@H](NC(=O)[C@@H](CCCNC(=N)N)NC(=O)[C@H](CCCNC(=N)N)NC(=O)[C@@H]1CCCN1C(=O)[C@@H]1CCCN1C(=O)[C@H](CCCNC(=N)N)NC(=O)[C@@H]1CCCN1C(=O)[C@H](CCCNC(=N)N)NC(=O)[C@@H]1CCCN1C(=O)[C@H](CC(C)C)NC(=O)[C@H](Cc1ccc(O)cc1)NC(=O)[C@@H]1CCCN1C(=O)[C@@H]1CCCN1C(=O)[C@H](CCCCN)NC(=O)[C@H](CC(=O)O)NC(=O)[C@@H](N)C(C)C)C(=O)N[C@@H](Cc1ccc(O)c([N+](=O)[O-])c1)C(=O)N[C@@H](CC(N)=O)C(=O)N[C@H](CCCNC(=N)N)C(N)=O` has an MIC of 8 µg/mL (broth microdilution; MC4100; 18 h, 37 °C, 25% MHB2).
The MIC of `CC[C@H](C)[C@H](NC(=O)[C@@H](NC(=O)[C@H](CCCCN)NC(=O)[C@H](CCC(N)=O)NC(=O)[C@@H](NC(=O)[C@H](Cc1c[nH]c2ccccc12)NC(=O)[C@H](CCCCN)NC(=O)[C@H](CCCCN)NC(=O)[C@H](CC(C)C)NC(=O)[C@H](CCCNC(=N)N)NC(=O)[C@H](Cc1ccccc1)NC(=O)[C@@H](N)C(C)C)[C@@H](C)CC)C(C)C)C(N)=O` is reported as 64 µM (24 h, 37 °C, Mueller-Hinton broth, no additive).
`CN[C@@H]1[C@H](O)[C@H](NC)[C@H]2O[C@]3(O)[C@H](O[C@@H]2[C@H]1O)O[C@H](C)C[C@H]3NC(=O)Cc1cscn1` gave an MIC of 100 µg/mL (microbial growth, broth dilution; K12).
`CC1(C)[C@H](NC(=O)/C(=N\OCCN)c2csc(N)n2)C(=O)N1OS(=O)(=O)O` has an MIC of 16 µg/mL (agar dilution; 08-85, mcr-1).
For `Cc1ccc2[nH]c3c(c2c1)CCCC3NCCc1ccc(Br)cc1` (centres unmarked), the MIC was greater than 128 µg/mL (broth microdilution; O-19592).
`CSCC[C@H](NC=O)C(=O)N[C@@H](CCCNC(=N)N)C(=O)N[C@H](C(=O)NCC(=O)N[C@@H](CC(N)=O)C(=O)N[C@@H](C)C(=O)N[C@@H](CC(N)=O)C(=O)NCC(=O)N1CCN(c2ccc(N3C[C@H](CNC(C)=O)OC3=O)cc2F)CC1)[C@@H](C)O` gave an MIC of roughly 17.5 µM (broth dilution; K12 MG1655 wild type).
The MIC of `C#CCO/N=C(\C(=O)N[C@@H]1C(=O)N(OS(=O)(=O)O)C1(C)C)c1nsc(N)n1` is reported as 16 µg/mL (agar dilution; 08-85, mcr-1).
For `CCCCCCCC(=O)N[C@@H](CCN)C(=O)N[C@H](C(=O)N[C@@H](CCN)C(=O)N[C@H]1CCNC(=O)[C@H]([C@@H](C)O)NC(=O)[C@H](CCN)NC(=O)[C@H](CCN)NC(=O)[C@H](CC(C)C)NC(=O)[C@@H](Cc2cc(F)c(F)c(F)c2)NC(=O)[C@H](CCN)NC1=O)[C@@H](C)O`, the MIC was 1 to 2 µg/mL (broth microdilution; mcr-1, colistin-resistant).
For `CC[C@H](C)[C@H](NC(=O)[C@@H](CCCNC(=N)N)NC(=O)[C@H](CCCNC(=N)N)NC(=O)[C@@H]1CCCN1C(=O)[C@@H]1CCCN1C(=O)[C@H](CCCNC(=N)N)NC(=O)[C@@H]1CCCN1C(=O)[C@H](CCCNC(=N)N)NC(=O)[C@@H]1CCCN1C(=O)[C@H](CC(C)C)NC(=O)[C@H](Cc1c[nH]c2ccccc12)NC(=O)[C@@H]1CCCN1C(=O)[C@@H]1CCCN1C(=O)[C@H](CCCCN)NC(=O)[C@H](CC(=O)O)NC(=O)[C@@H](N)C(C)C)C(=O)N[C@@H](Cc1ccc(O)cc1)C(=O)N[C@@H](CC(N)=O)C(=O)N[C@H](CCCNC(=N)N)C(N)=O`, the MIC was 8 µg/mL (broth microdilution; BW25113; 18 h, 37 °C, 25% MHB2).
The MIC of `CC(C)C[C@@H](NC(=O)[C@@H](CCCNC(=N)N)NC(=O)[C@H](N)CCCNC(=N)N)C(=O)N[C@H](CC(C)C)C(=O)N[C@H](CCCNC(=N)N)C(=O)N[C@H](CCCCN)C(=O)N[C@H](CC(C)C)C(=O)N[C@H](CCCCN)C(=O)NCC(=O)N[C@H](CCCCN)C(=O)N[C@H](CCCCN)C(=O)N[C@H](CC(C)C)C(=O)N[C@H](Cc1ccc(O)cc1)C(=O)N[C@H](CC(C)C)C(=O)N[C@H](Cc1ccc(O)cc1)C(=O)N[C@H](Cc1ccccc1)C(=O)N[C@H](CCCCN)C(=O)N[C@H](CC(C)C)C(=O)N[C@H](CCC(N)=O)C(=O)N[C@H](CC(C)C)C(=O)N[C@H](CC(C)C)C(=O)N[C@H](CCCCN)C(=O)N[C@H](CCCCN)C(N)=O` is reported as 16 µM (KCTC 1682, Mueller-Hinton broth; added: 2.5 mM CaCl2).
`CC[C@H](C)[C@H](NC(=O)[C@@H](CCCNC(=N)N)NC(=O)[C@H](CCCNC(=N)N)NC(=O)[C@H](CCCNC(=N)N)NC(=O)[C@H](Cc1c[nH]c2ccccc12)NC(=O)[C@H](CCCNC(=N)N)NC(=O)[C@@H]1CCCN1C(=O)[C@H](CCCNC(=N)N)NC(=O)[C@@H]1CCCN1C(=O)[C@H](CC(C)C)NC(=O)[C@H](Cc1ccc(O)cc1)NC(=O)[C@@H]1CCCN1C(=O)[C@@H]1CCCN1C(=O)[C@H](CCCCN)NC(=O)[C@H](CC(=O)O)NC(=O)[C@@H](N)C(C)C)C(=O)N[C@@H](Cc1ccc(O)cc1)C(=O)N[C@@H](CC(N)=O)C(=O)N[C@H](CCCNC(=N)N)C(N)=O` has an MIC of 8 µg/mL (broth microdilution; MC4100; 18 h, 37 °C, 25% MHB2).
The MIC of `CCn1c(-c2ccc(F)cc2)c(-c2ccc(F)cc2)n(CC)c1=[Se]` is reported as greater than 40 µM (broth microdilution; carbapenem-resistant BAA-2140; 24 h).
`CC[C@H](C)[C@H](NC(=O)[C@H](CCCCN)NC(=O)[C@@H](NC(=O)[C@@H](NC(=O)[C@H](CC(C)C)NC(=O)[C@H](CCCNC(=N)N)NC(=O)[C@@H](NC(=O)[C@H](CC(C)C)NC(=O)[C@H](CCCNC(=N)N)NC(=O)CNC(=O)[C@H](Cc1ccccc1)NC(=O)[C@@H](N)CCCNC(=N)N)[C@@H](C)CC)[C@@H](C)CC)C(C)C)C(=O)N[C@@H](C)C(=O)N[C@@H](CCCNC(=N)N)C(=O)N[C@@H](CCCNC(=N)N)C(=O)N[C@@H](C)C(=O)N[C@@H](Cc1c[nH]cn1)C(=O)N[C@@H](CCCNC(=N)N)C(=O)N[C@@H](C)C(=O)N[C@@H](CCCNC(=N)N)C(=O)N[C@@H](CO)C(=O)N[C@@H](C)C(=O)N[C@H](C(=O)N[C@@H](CCCCN)C(=O)N[C@@H](C)C(=O)N[C@@H](C)C(=O)N[C@@H](CO)C(=O)N[C@@H](CC(N)=O)C(=O)N[C@H](C(=O)N[C@@H](C)C(=O)N[C@@H](C)C(=O)N[C@@H](CC(C)C)C(=O)N[C@@H](C)C(=O)N[C@@H](Cc1c[nH]cn1)C(=O)NCC(=O)N[C@@H](C)C(N)=O)C(C)C)C(C)C` gave an MIC of no more than 0.064 µM (bacterial growth, broth microdilution; cation-adjusted Mueller Hinton broth; 18 h, 37 °C).
`CC[C@H](C)[C@H](NC(=O)[C@@H](NC(=O)[C@H](CCCCN)NC(=O)[C@H](CCCCN)NC(=O)[C@@H](NC(=O)[C@H](Cc1c[nH]c2ccccc12)NC(=O)[C@H](CCCCN)NC(=O)[C@@H](NC(=O)[C@H](CC(C)C)NC(=O)[C@H](CCCCN)NC(=O)[C@H](CCCCN)NC(=O)[C@@H](N)C(C)C)[C@@H](C)CC)[C@@H](C)CC)C(C)C)C(N)=O` has an MIC of 64 µM (24 h, 37 °C, Mueller-Hinton broth, NaCl 150 mM).
The MIC of `COc1c(NC(=O)c2ccc(NC(=O)[C@H](CC#N)NC(=O)c3ccc(NC(=O)[C@@H](N)Cc4ccccc4)c(OC)c3O)c(OC)c2O)ccc(C(=O)Nc2ccc(C(=O)O)cc2)c1O` is reported as greater than 16 µg/mL.
`CC[C@H](C)[C@H](NC(=O)[C@H](CCCNC(=N)N)NC(=O)[C@H](Cc1c[nH]c2ccccc12)NC(=O)[C@H](Cc1c[nH]c2ccccc12)NC(=O)[C@H](CCCNC(=N)N)NC(=O)[C@@H](N)CCCNC(=N)N)C(=O)N[C@@H](Cc1c[nH]c2ccccc12)C(N)=O` has an MIC of 16 µg/mL (25922).
With `CC[C@H](C)[C@H](NC(=O)[C@@H](CCCNC(=N)N)NC(=O)[C@H](CCCNC(=N)N)NC(=O)[C@@H]1CCCN1C(=O)[C@H](Cc1c[nH]c2ccccc12)NC(=O)[C@H](CCCNC(=N)N)NC(=O)[C@@H]1CCCN1C(=O)[C@H](CCCNC(=N)N)NC(=O)[C@@H]1CCCN1C(=O)[C@H](CC(C)C)NC(=O)[C@H](Cc1ccc(O)cc1)NC(=O)[C@@H]1CCCN1C(=O)[C@@H]1CCCN1C(=O)[C@H](CCCCN)NC(=O)[C@H](CC(=O)O)NC(=O)[C@@H](N)C(C)C)C(=O)N[C@@H](Cc1ccc(O)cc1)C(=O)N[C@@H](CC(N)=O)C(=O)N[C@H](CCCNC(=N)N)C(N)=O` the MIC was 4 µg/mL (broth microdilution; MC4100; 18 h, 37 °C, 25% MHB2).

A few entries again:
The MIC of `CC(C)C[C@@H](NC(=O)[C@@H](CCCNC(=N)N)NC(=O)[C@H](N)CCCNC(=N)N)C(=O)N[C@H](CC(C)C)C(=O)N[C@H](CCCNC(=N)N)C(=O)N[C@H](CCCCN)C(=O)N[C@H](CC(C)C)C(=O)N[C@H](CCCCN)C(=O)NCC(=O)N[C@H](CCCCN)C(=O)N[C@H](CCCCN)C(=O)N[C@H](CC(C)C)C(=O)N[C@H](Cc1ccc(O)cc1)C(=O)N[C@H](CC(C)C)C(=O)N[C@H](Cc1ccc(O)cc1)C(=O)N[C@H](Cc1ccccc1)C(=O)N[C@H](CCCCN)C(=O)N[C@H](CC(C)C)C(=O)N[C@H](CCC(N)=O)C(=O)N[C@H](CC(C)C)C(=O)N[C@H](CC(C)C)C(=O)N[C@H](CCCCN)C(=O)N[C@H](CCCCN)C(N)=O` is reported as 16 µM (KCTC 1682, Mueller-Hinton broth; added: 2.5 mM CaCl2).
For `CCCCCCCC(=O)N[C@@H](CCN)C(=O)N[C@H](C(=O)N[C@@H](CCN)C(=O)N[C@H]1CCNC(=O)[C@H]([C@@H](C)O)NC(=O)[C@H](CCN)NC(=O)[C@H](CCN)NC(=O)[C@H](CC(C)C)NC(=O)[C@@H](Cc2cc(F)c(F)c(F)c2)NC(=O)[C@H](CCN)NC1=O)[C@@H](C)O`, the MIC was 1 to 2 µg/mL (broth microdilution; mcr-1, colistin-resistant).
The MIC of `C#CCO/N=C(\C(=O)N[C@@H]1C(=O)N(OS(=O)(=O)O)C1(C)C)c1nsc(N)n1` is reported as 16 µg/mL (agar dilution; 08-85, mcr-1).
